Measured values gathered from unrelated publications.
Lines come from different studies, so protocols differ. Values joined by “and” are separate records of one study, mostly repeats; a detail may differ.
Target: Serine/threonine-protein kinase SIK3 (SIK3, Homo sapiens, UniProt Q9Y2K2)

`CCn1cc(C(=O)O)c(=O)c2c(N)c(F)c(NC3CCCCC3)cc21` gave an inhibition of 1.3% (kinase activity; 0.1 µM, added: ATP at Km).
`C=CC(=O)N1CCc2ccc(-n3c(=O)ccc4cnc5ccc(-c6cnn(C)c6)cc5c43)cc21` has a remaining binding of 100% (KINOMEscan; 1 µM; relative to: DMSO control).
`Cc1cnc2nc1Nc1cccc(c1)COC/C=C/COCc1cc(ccc1OCCN1CCOCC1)N2` gave a remaining binding of 100% (kinase binding panel; concentration not given; relative to: control).
`CC(C)=CC1OC(C)(C)C2C=C3C(=O)C(Cl)=CC(O)C3C3C(O)C4OC4C(=O)C132` (stereo not shown) gave a remaining binding of 88% (cell-free assay, competition with immobilised ligand; 10 µM).
`CN1CC[C@@H](COc2cnc(C#N)cc2-c2ccn3nc(NC(=O)C4CC4)cc3c2)C1` gave an inhibition of 83% (enzyme activity, inhibitor; 1 µM).
The inhibition of `C=CC(=O)N1Cc2nc(-c3cc(-c4cc(Cl)cnc4Cl)c(F)cc3F)n(-c3ccncn3)c2C1` is reported as -5.8% (cell-free assay, inhibitor; 1 µM).
`COc1c(Cl)cccc1Nc1c(-c2ccncc2C#C[C@@]2(C)CCCN2C(=O)/C=C/CN(C)C)[nH]c2c1C(=O)NCC2` gave a remaining binding of 74% (binding, competition with immobilised ligand; 3 µM).
`CN1CCN(Cc2ccc(-c3ccc(CO[C@H]4CCC[C@@H]4NC(=O)c4cc(-c5cnn(C)c5)cnc4N)cc3)cc2)CC1` gave an inhibition of 11% (enzyme activity, inhibitor; 0.1 µM).
For `N[C@H]1CC[C@H](Nc2nccc(-c3cccnc3Oc3ccc(NC(=O)NC4CC4)c4ccccc34)n2)CC1`, “log2 LFQ intensity” read 20.9 and 18.4 and 20 and 18.7 (kinobead competition pulldown; HEK293/HCT116 lysate mixture; 10 µM, 1 h, 4 °C; lower = stronger competition).
For `CCN1CCN(Cc2ccc(C(=O)Nc3ccc(C)c(NCc4cnc5[nH]ccc5c4OC)c3)cc2C(F)(F)F)CC1`, the remaining binding was 52% (binding, competition with immobilised ligand; 1 µM).
`O=C(Cc1ccc(OCc2ccccc2)cc1)NC1(C(=O)O)CCN(C(=O)c2ccc(-c3cccc(Cl)c3)cc2)CC1`: “activity vs control” 115% (enzyme activity, inhibitor; 10 µM).
`COc1cc(Nc2nccc(-c3cnn4nc(OC)ccc34)n2)cc(C(F)(F)F)c1` gave a remaining binding of 100% (binding, competition with immobilised ligand; 1 µM).
`Cc1ccc(C(=O)Nc2ccc(CN3CCN(C)CC3)c(C(F)(F)F)c2)cc1C#Cc1cnc2cccnn12` gave an upper asymptote of 6040 (target engagement, NanoBRET; human cells).
With `CNC1C[S+]2CC[S+]3CC[S+](C1)[Ru-4]321([N]=C=S)[n]2c3ccc(OC)cc3c3c4c(c5cc(F)c[n+]1c5c32)C(=O)NC4=O` (stereo not shown) the remaining binding was 85% (KinomeScan; 0.1 µM; relative to: untreated).
The remaining binding of `Nc1ncc2c(n1)-c1c([nH]c3ccc(C4=CCOCC4)cc13)CCC2` is reported as 84% (binding, competition with immobilised ligand; 1 µM).
For `CNC(=O)C1CCN(c2cc(C)c(F)cc2NC(=O)c2ccc(-c3cc(O)ccc3C)c(C)c2)CC1`, the remaining binding was 84% (binding, competition with immobilised ligand; 1 µM).
`C=CC(=O)N1CCCC(n2c(=O)c3ncccc3n(Cc3ccc(Oc4ccccc4)cc3)c2=O)C1` (stereo not shown) has a remaining binding of 82% (cell-free assay, competition with immobilised ligand; 1 µM).
`CNC(=O)C[C@H](Cc1ccc(C#N)cc1)NC(=O)c1cc(-c2ccc(CN[C@H](C)c3ccc(C)cc3)o2)ccc1Cl` — result for “activity vs control”: 119% (enzyme activity, inhibitor; 1 µM).
`COc1ccccc1-c1ccn2nc(NC(=O)C3CC3)cc2c1` gave a selectivity ratio of 18 fold (relative to: SIK2 Ki over SIK3 Ki).

Some of these lines once more:
`CN1CC[C@@H](COc2cnc(C#N)cc2-c2ccn3nc(NC(=O)C4CC4)cc3c2)C1` gave an inhibition of 83% (enzyme activity, inhibitor; 1 µM).
The inhibition of `C=CC(=O)N1Cc2nc(-c3cc(-c4cc(Cl)cnc4Cl)c(F)cc3F)n(-c3ccncn3)c2C1` is reported as -5.8% (cell-free assay, inhibitor; 1 µM).
`COc1c(Cl)cccc1Nc1c(-c2ccncc2C#C[C@@]2(C)CCCN2C(=O)/C=C/CN(C)C)[nH]c2c1C(=O)NCC2` gave a remaining binding of 74% (binding, competition with immobilised ligand; 3 µM).
